Published values from different studies.
Every numbered part comes from another study and shows a few of its results, in no order. Substitutions count along the parent as printed.

Set 1 — technique: protein-binding microarray; molecule type: double-stranded DNA, one strand shown; matrix: in vitro; concentration: not given; direction: higher = stronger binding
Target: Microphthalmia-associated transcription factor, full length (MITF, Homo sapiens, UniProt O75030-10, residues 1-413)
Notes: k-mer, scored over probes, only values ≥0.25
Target sequence (chain): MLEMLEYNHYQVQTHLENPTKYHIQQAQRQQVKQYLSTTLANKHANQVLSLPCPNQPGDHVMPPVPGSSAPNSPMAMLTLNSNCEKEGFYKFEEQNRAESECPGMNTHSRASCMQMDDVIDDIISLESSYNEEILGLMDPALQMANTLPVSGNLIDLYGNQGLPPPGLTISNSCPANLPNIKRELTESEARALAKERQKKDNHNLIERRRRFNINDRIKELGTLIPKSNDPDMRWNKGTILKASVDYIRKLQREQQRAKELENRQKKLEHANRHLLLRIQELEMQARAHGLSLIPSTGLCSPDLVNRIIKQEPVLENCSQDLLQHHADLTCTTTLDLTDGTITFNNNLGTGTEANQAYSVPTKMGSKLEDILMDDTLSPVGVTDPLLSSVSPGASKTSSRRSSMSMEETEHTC
| Oligonucleotide | E-score |
| --- | --- |
| ACGTGAC | 0.476 |
| ACACATG | 0.367 |
| CACGCGG | 0.425 |
| CATGAGA | 0.3 |
| CATGTGG | 0.391 |
| ACGAGGG | 0.347 |
| AACACGT | 0.345 |
| CGCGAGA | 0.263 |

Set 2 — technique: RNA Bind-n-Seq; molecule type: RNA; matrix: in vitro; concentration: 365 nM; reference: no-protein control; direction: higher = stronger binding
Target: RNA binding protein fox-1 homolog 2, RRM domain, GST-SBP tag (RBFOX2, Homo sapiens, UniProt O43251-10, residues 100-194)
Notes: natural RNA segment, single round, ends assumed
Construct (chain): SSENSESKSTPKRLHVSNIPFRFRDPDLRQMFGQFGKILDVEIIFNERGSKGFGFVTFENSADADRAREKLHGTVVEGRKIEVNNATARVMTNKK
| Oligonucleotide | RBNS enrichment (R) |
| --- | --- |
| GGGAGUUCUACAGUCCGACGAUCAAGACUGUUUUCAUAUGUUAUACUCAGAUAAAGAUUUUAAAUGGUAUUACGUAUAAAUUAAUAUAAAAUGAUUACCUCUGGUGUUGACAGGUUUGAACUUGCACUUCUUAUGGAAUUCUCGGGUGCCAA | 0.397 |
| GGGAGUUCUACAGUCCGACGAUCUGGUAGACUGGAUCCUGACCAGAAGGAGGUCUGAUAUAAUAUCCAUCCAGACAAGAAAUCAACAUGCUAUCAAGAACCAGGUUGAAGCAAAACUGAAAGUGUGUGAUAUUUGGAAUUCUCGGGUGCCAA | 0.773 |
| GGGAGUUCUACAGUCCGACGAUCCCAUUGUUACAAGUUUAUAAUGUAUUUUUCUAUCUUGUUUUAUAUGUAUGUUAUAUAACAUUCAAAAGAAUUUUUUUCUUGAUUGAGAAAAGGAUACAAAAUGCAAAAUCUGGAAUUCUCGGGUGCCAA | 1.15 |
| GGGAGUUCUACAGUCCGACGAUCCCAGCCUCCACCCGCACAAAGGGGCUCUAAAUCCCAGGCCUCAUCUCCCCACUGGCAGUCCGUGCUCAGGCUGGCUCUUAGGCCUGCGGCUUUGAUGGAGGAGGUAUUGUUGGAAUUCUCGGGUGCCAA | 1.12 |
| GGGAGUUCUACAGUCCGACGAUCAACUGGAAAGGCUGUCUGGGGUCUUCUGACUGCAGGGGAAGGAUGUACUUUCCAAACAAAUGAUACAACCCUGACCAAGCUAAAAGACGCUUGUUAAAGGCUAUUUUCUAUGGAAUUCUCGGGUGCCAA | 0.542 |
| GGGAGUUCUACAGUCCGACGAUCCUCUCCCAAGAUUUCUCUUCUCUCCACACCAGACCUCGUUCAUUUGACUAACAUUUUCCAGCGCCUACUAUGUGUCAGAAACAAGUGUUUCUGCCUGGACAUCAUAAAUGUGGAAUUCUCGGGUGCCAA | 0.773 |
| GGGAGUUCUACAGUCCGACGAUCAUACUUUCUCUUUUUUAUAUGAUGUCUAACAAAAAAAAAAUACAGCUCCAACAUUUUGAUUCCUGUUAAUUUUGUUCUUUAAUUAAAUGACUACUUAUUACAGGAAAUGAUGGAAUUCUCGGGUGCCAA | 1.15 |
| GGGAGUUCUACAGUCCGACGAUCCUAAUCAUUCAUCUGUUCAUGUCUCCCUCUUGUGCCAGUCAGCCUAGGUUAUACAGAUGCCAUGCUCCACACCACGAGCAGUGUACAAAUCUGGCUGCCCGUUUACUUUCUGGAAUUCUCGGGUGCCAA | 0.19 |

Set 3 — read-out: peptide-MHC binding; molecule type: peptide; concentration: concentration not given
Target: HLA class I histocompatibility antigen, A alpha chain, allele A*80:01 (Homo sapiens, UniProt P04439)
| Molecule | binding |
| --- | --- |
| MQDVFTFYV | inactive |
| HSGFIYFGK | inactive |
| SGLPGIFIV | inactive |

Set 4 — target: CCNB2, cyclin fold, Cln2 fusion (human); technique: yeast growth competition, sequencing; matrix: yeast; notes: strong parent motif; reference: not given; direction: higher = stronger binding; starting sequence: viral docking peptide; TSVRRALFTGGSD
| Variant | normalised enrichment score |
| --- | --- |
| R4K | 0.47 |
| G11M | 0.793 |
| V3H | -0.0421 |
| T1A | 1.24 |

Repeated from above (set 1):
| Oligonucleotide | E-score |
| --- | --- |
| CATGAGA | 0.3 |
| CATGTGG | 0.391 |
